{"data": "Measurements from different studies", "note": "Every numbered part comes from another study and shows a few of its results, in no order."}
{"data": "Block 1", "target": "TAR DNA-binding protein 43, full length, His tag (TARDBP, Homo sapiens, UniProt Q13148, residues 1-414)", "technique": "RNA Bind-n-Seq", "molecule type": "RNA", "sample": "in vitro", "concentration": "20 nM", "setting": "6-mer, flanks averaged, single round", "with": "150 mM KCl", "baseline": "input library", "direction": "higher = stronger binding"}
{"Strand": "GUGCGU", "6-mer enrichment (R)": 1.47}
{"Strand": "AGCUCU", "6-mer enrichment (R)": 0.586}
{"Strand": "CUAUGU", "6-mer enrichment (R)": 0.647}
{"Strand": "ACCUGA", "6-mer enrichment (R)": 0.639}
{"Strand": "CUACUA", "6-mer enrichment (R)": 0.575}
{"Strand": "GUUACA", "6-mer enrichment (R)": 0.643}
{"Strand": "CAUUUU", "6-mer enrichment (R)": 0.677}
{"Strand": "UCCCGA", "6-mer enrichment (R)": 0.643}
{"Strand": "AUAAAC", "6-mer enrichment (R)": 0.627}
{"Strand": "UUUUAU", "6-mer enrichment (R)": 0.723}
{"Strand": "GCUGUU", "6-mer enrichment (R)": 0.78}
{"Strand": "CGAGAC", "6-mer enrichment (R)": 0.84}
{"Strand": "ACACAG", "6-mer enrichment (R)": 0.76}
{"Strand": "AUAAGC", "6-mer enrichment (R)": 0.668}
{"Strand": "CACUAG", "6-mer enrichment (R)": 0.684}
{"data": "Block 2", "target": "Sal-like protein 4, full length isoform B (SALL4, Homo sapiens, UniProt Q9UJQ4-2, residues 1-616)", "technique": "universal PBM", "molecule type": "double-stranded DNA, one strand shown", "sample": "in vitro", "concentration": "not given", "setting": "8-mer, flanks averaged, mean of replicates", "direction": "higher = stronger binding"}
{"Strand": "AGGGAGAT", "E-score": -0.123}
{"Strand": "CCTAAGGA", "E-score": -0.011}
{"Strand": "CGTGGTAA", "E-score": 0.0318}
{"Strand": "ACGAGCAG", "E-score": -0.127}
{"Strand": "GGGGATAC", "E-score": -0.234}
{"Strand": "AATAGATC", "E-score": 0.163}
{"Strand": "GTCGCGTA", "E-score": -0.0323}
{"Strand": "ATCATGAG", "E-score": 0.0837}
{"Strand": "CAGTACGC", "E-score": 0.0204}
{"Strand": "AGTGACGA", "E-score": 0.0912}
{"Strand": "GCATATAA", "E-score": 0.325}
{"Strand": "CCCGAAAA", "E-score": 0.175}
{"Strand": "CGGCCACC", "E-score": -0.274}
{"Strand": "AGTTGTTC", "E-score": 0.0687}
{"Strand": "ACCTCAAA", "E-score": 0.128}
{"Strand": "AAAAAACC", "E-score": 0.0433}
{"Strand": "TAAACATA", "E-score": 0.346}
{"Strand": "TAAGGGCA", "E-score": -0.0327}
{"Strand": "GAGATAGC", "E-score": -0.159}
{"Strand": "GGTTGGCA", "E-score": -0.0652}
{"Strand": "CAATTAGA", "E-score": 0.14}
{"Strand": "GAGATGCC", "E-score": -0.168}
{"Strand": "AATAGTCA", "E-score": 0.134}
{"Strand": "AAACTATA", "E-score": 0.263}
{"Strand": "CCTCTCAG", "E-score": -0.323}
{"data": "Block 3", "target": "RNA binding protein fox-1 homolog 2, RRM domain, GST-SBP tag (RBFOX2, Homo sapiens, UniProt O43251-10, residues 100-194)", "technique": "RNA Bind-n-Seq", "molecule type": "RNA", "sample": "in vitro", "concentration": "365 nM", "setting": "natural RNA segment, single round, ends assumed", "baseline": "no-protein control", "direction": "higher = stronger binding", "shared flanks, not repeated": "GGGAGUUCUACAGUCCGACGAUC … UGGAAUUCUCGGGUGCCAA", "Target sequence (chain)": "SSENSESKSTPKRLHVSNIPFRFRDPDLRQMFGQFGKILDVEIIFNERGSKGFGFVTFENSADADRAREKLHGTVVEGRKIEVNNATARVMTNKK"}
{"Strand": "GAAAACUCACUUCAAUGAACAAAGGGAUUCUCCAGGAUUCCAAAGUUUUGAAGUCAUCUUAGCUUUCCACAGGAGGGAGAGAACUUAAAAAAGCAACAGUAGCAGGGAAU", "RBNS enrichment (R)": 0.398}
{"Strand": "UCCUAAGAGGAUAAAUUAUGUAACUGAUUUGCCCAGCUGAAUCAGGACUGCAAAUGCCAGGCUUUCCUUGGCCAUGUAUCUAAAAUCCCAUAAACUCCUCCCUUUGGGAG", "RBNS enrichment (R)": 0.307}
{"Strand": "CCCAAUGGCUCUUUUGUGAAUGAUCUGUUUCGUUAUUGUUUAUUGUUGAGUCUGUAUAUCAACAGGGAGAGUGUUGUCUGCUCUUAAACAGGAAUGAAAGGGGGGAGGGG", "RBNS enrichment (R)": 0.944}
{"Strand": "UUGCGGUACCAGAAAGCAGCGAGAGCGAGACCUGGGAGCCAGGGCAGGGGUGGCUGACCCCAUGCUCAGCCUCUAGGGGACGGCAGGCCAUCAGGCUGGGGGCUGUGCUA", "RBNS enrichment (R)": 0.586}
{"Strand": "CAAGAAGGUAACAUCAAAUAAAUAAGUCAAGCAGAGGACUUCCUGCCAAUCUCUUCUGUGAGGCAUCAUAGACACUGAGCAACCAGGACCACCCCCACGUUCAGAAAUCA", "RBNS enrichment (R)": 0.403}
{"Strand": "UGUGGUCUGCCCACACCUGUCUACUCUGGCAUGUGUCAGGAAAAGGAGCGUCAAAGGUGACCUUUACCCUCACAGCGUACCAAUAAACCACGGUGCCAGCUUUGGAGAUG", "RBNS enrichment (R)": 0.31}
{"Strand": "CUAAACAAGUGGCCGCGUGUAAAAACAGACAGCUCUGAGUCAAAUCUGGGCCCUUCCACAAGGGUCCUCUGAACCAAGCCCCACUCCCUUGCUAGGGGUGAAAGCAUUAC", "RBNS enrichment (R)": 0.231}
{"Strand": "UACCAUAGAAAAAUGUAUAAAAAUUAUCAAAAAGCUAAUGUGCAGGGAUAUUGCCUUAUUUGUCUGUAAAAAAUGGAGCUCAGUAACAUAACUGCUUCUUGGAGCUUUGG", "RBNS enrichment (R)": 0.84}
{"Strand": "GCCCAUUCCAGCUGGAGUCGUGGGGCUGGGCACAGGGGAAUUUUUCCAGAGCUGAGCCUGACGUCUGCUCUGAAGAAUGCUUAGAAGGUUCCCAGACACCAGAGCCAGAU", "RBNS enrichment (R)": 1.67}
{"Strand": "CUGUUUAACUUGGCCAAUCUAGGCCAUCAACCUAGAUAACUUAGUCCUUUUCAUGUAAAUUUUUGUGCAAGCACAAUCUACUUUAACUGCCUUGCCUGACCAAAUUAAAU", "RBNS enrichment (R)": 0.348}
{"Strand": "CUUUUCUUUCAUUCAGAUGACCUUUUUCUGAAUCUGGGCACUGAAGGGAUGCAUAAAAUAAUGUUAAUGUUUUCAGUAAUGUCUUCAAGUAGAAGACUUUCUGUUGAACU", "RBNS enrichment (R)": 0.287}
{"Strand": "UGGACAUCGUCUUAUCCCCAUAAUCCUUGCCAUCCCUACAAGGCCCAUCGCCACCACCUUUUCCCAGGUUUAUUGAGGUAUGAUUGACAUCCAGUAAAAUUCACCCUUUG", "RBNS enrichment (R)": 0.676}
{"data": "Block 4", "target": "RING finger protein unkempt homolog, zinc fingers 1-6, GST-SBP tag (UNK, Homo sapiens, UniProt Q9C0B0, residues 30-357)", "technique": "RNA Bind-n-Seq", "molecule type": "RNA", "sample": "in vitro", "concentration": "not given", "setting": "RNA with constant flanks, human and mouse sites, ends assumed", "baseline": "input RNA pool", "direction": "higher = stronger binding", "shared flanks, not repeated": "GGGAGUUCUACAGUCCGACGAUC … CAACAGAGGAUUGAGCAUCA", "UniProt Q9C0B0, sequence (30-357, looked up)": "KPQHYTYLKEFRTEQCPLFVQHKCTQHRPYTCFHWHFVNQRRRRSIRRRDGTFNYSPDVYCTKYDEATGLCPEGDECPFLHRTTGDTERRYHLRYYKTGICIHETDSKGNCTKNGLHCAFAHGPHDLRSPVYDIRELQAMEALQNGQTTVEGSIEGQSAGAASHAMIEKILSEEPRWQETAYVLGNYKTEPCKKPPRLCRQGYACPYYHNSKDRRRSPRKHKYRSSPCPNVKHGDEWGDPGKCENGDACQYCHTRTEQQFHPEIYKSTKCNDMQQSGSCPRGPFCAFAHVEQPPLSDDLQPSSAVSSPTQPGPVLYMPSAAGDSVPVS"}
{"Strand": "GGCAUGCAUGUAUUACCAUGGAGGUAGCUCAUUGAUCUUUUAAGGUUCCUCAUAUAAUUUAAUGUCUUUAUCAAGAUUUUAAGAGAGCUCUUUACAUUCCUACUGGUUUGCUUGAGCUAU", "bound/input enrichment": "0.137 ratio"}
{"Strand": "GGUGUGGAACUGGGUUCAGUUUGGCAAAGACUUGGUGCAGAUGUGACAGCAGUUGAAUUUUUGGGUCAUGUGGGUGGAAUUGGAAUUGACAUGGAGAUAUCAAAAAAUUUUCAACGUAUA", "bound/input enrichment": "0.559 ratio"}
{"Strand": "UGAACUAAAGGAGUUAGCAUCUUUAUUUUUGUAUCAAAGAUAAAGGUUAUUUUGAAAAUUAUUAGGGUUUUUACAUAACUCUGGAAUCUGUUGCUUUUAUAAACAAAUUGUUCAAUUUUA", "bound/input enrichment": "17 ratio"}
{"Strand": "AAGCGCAAGAAGAAUGACAUUUAUGGAGAAGACUAACAGCAGUACAUAUUAUGUAAUAAUUAGGACAAACUUAAAAUUUGGCAAAUAAUGUAUAUUGUAUGAAAUCAAUACUGUAAGCCC", "bound/input enrichment": "0.641 ratio"}
{"Strand": "CUCUCCAGUUCCAAGGACUCGUAUACAGCUCCCAUUUAUAAUUUUGCCCUUAUUUUUAAGUUAGGAAAUAAUGAUUAACUUAUGAAUAAAUAGUAUGGGGCAAGAGUGGGAUUUCUUCCG", "bound/input enrichment": "0.277 ratio"}
{"Strand": "AUGAAGAACAUUGUUGCUAAAAAUGGAUUUUCCGGAUUAUUUUCAGGCCUAAUUCCUCGCUUAAUUAAAAUUGCUCCUGCUUGUGCCAUUAUGAUCAGUACAUAUGAAUUUGGAAAGGCU", "bound/input enrichment": "0.273 ratio"}
{"Strand": "AGCGGAUGAUAGAAGCAGUAGAUAACAAUUUACGGCCAAAAUCAGAAUAAGAGCUUUAUGUUCUGAGAAGCACUUUAAGGAAUUUAGCUUUGUCAAAAUAUAUUAGGAAUCACUAAUGAG", "bound/input enrichment": "3 ratio"}
{"Strand": "GGGUAGAUAGAGUAGUAUAUGUGGGGGUGGGAGGGUAUGGGAGUUUAAUUUGUAUAAACCACUGAUGUUCUGUGAAAUCGGAAUUUCCAGCUACAUUUCAUAUAGCUUCUGAAUAUUCAG", "bound/input enrichment": "92.2 ratio"}
{"Strand": "ACAGAGGGUAACAGAAGUAAAGUAGACAGUAAUAAAGCGCACACUGAUAAUAAGGCCGAAUUUCCAAGCUAUUUGUUGGGGGGGAGGUCUGGUGCAUUGAAAAAUUUCGUCAUUCCAAAA", "bound/input enrichment": "0.524 ratio"}
{"Strand": "GCUAUGCAAGCCUUAACUCUUCUGGGAGCAUGUGUAUCAAACUGUGGCAAAAUUUUUCACUUAGAAGUAUGUUCAAGAGACUUUGCUAGUGAAGUAAGCAAUGUAUUAAAUAAGGGUCAU", "bound/input enrichment": "1.5 ratio"}
{"Strand": "ACCAUUAAACUGAAUCAGAAAUCCAUUUUCUGGCUGAAUAAAAAGUUUGGCUUGCCUGUGUAAUGCCCACUCCCUUCCCCCUGGCUCCCUAGUGAUGGGACAUAUAUGAGAGAGAAGUGU", "bound/input enrichment": "0.205 ratio"}
